Assay results from different studies.
Each numbered part is a random draw from the data of one study; scales do not carry over between parts.
UniProt P42336, sequence (whole entry, unmodified, looked up): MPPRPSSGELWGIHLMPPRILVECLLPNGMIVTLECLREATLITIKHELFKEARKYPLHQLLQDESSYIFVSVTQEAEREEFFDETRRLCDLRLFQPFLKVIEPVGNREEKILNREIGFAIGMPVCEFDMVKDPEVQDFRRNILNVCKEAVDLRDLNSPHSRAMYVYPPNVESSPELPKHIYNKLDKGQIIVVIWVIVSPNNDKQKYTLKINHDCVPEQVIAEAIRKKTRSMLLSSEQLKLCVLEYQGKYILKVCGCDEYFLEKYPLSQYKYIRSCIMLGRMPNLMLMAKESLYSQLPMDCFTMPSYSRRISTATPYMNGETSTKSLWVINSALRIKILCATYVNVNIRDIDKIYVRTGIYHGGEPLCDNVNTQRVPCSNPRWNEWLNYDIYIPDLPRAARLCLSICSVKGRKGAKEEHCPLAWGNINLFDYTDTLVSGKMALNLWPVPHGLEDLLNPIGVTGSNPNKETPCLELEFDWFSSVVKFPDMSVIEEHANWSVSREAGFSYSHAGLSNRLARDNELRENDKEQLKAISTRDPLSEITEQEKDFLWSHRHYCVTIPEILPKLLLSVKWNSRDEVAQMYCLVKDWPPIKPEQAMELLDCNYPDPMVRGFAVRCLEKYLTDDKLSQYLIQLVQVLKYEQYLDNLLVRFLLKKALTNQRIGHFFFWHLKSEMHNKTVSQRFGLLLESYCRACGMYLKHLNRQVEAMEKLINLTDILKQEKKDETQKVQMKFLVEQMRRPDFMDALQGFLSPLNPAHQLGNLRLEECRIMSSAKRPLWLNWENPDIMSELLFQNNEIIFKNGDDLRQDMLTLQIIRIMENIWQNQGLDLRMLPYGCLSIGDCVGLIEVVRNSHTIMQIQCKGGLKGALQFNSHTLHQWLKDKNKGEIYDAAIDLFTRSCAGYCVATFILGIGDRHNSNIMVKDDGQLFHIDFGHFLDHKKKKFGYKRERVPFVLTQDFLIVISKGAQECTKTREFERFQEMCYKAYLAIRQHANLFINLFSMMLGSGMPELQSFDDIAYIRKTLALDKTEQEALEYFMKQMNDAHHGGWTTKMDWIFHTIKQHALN
UniProt P00519, sequence (whole entry, unmodified, looked up): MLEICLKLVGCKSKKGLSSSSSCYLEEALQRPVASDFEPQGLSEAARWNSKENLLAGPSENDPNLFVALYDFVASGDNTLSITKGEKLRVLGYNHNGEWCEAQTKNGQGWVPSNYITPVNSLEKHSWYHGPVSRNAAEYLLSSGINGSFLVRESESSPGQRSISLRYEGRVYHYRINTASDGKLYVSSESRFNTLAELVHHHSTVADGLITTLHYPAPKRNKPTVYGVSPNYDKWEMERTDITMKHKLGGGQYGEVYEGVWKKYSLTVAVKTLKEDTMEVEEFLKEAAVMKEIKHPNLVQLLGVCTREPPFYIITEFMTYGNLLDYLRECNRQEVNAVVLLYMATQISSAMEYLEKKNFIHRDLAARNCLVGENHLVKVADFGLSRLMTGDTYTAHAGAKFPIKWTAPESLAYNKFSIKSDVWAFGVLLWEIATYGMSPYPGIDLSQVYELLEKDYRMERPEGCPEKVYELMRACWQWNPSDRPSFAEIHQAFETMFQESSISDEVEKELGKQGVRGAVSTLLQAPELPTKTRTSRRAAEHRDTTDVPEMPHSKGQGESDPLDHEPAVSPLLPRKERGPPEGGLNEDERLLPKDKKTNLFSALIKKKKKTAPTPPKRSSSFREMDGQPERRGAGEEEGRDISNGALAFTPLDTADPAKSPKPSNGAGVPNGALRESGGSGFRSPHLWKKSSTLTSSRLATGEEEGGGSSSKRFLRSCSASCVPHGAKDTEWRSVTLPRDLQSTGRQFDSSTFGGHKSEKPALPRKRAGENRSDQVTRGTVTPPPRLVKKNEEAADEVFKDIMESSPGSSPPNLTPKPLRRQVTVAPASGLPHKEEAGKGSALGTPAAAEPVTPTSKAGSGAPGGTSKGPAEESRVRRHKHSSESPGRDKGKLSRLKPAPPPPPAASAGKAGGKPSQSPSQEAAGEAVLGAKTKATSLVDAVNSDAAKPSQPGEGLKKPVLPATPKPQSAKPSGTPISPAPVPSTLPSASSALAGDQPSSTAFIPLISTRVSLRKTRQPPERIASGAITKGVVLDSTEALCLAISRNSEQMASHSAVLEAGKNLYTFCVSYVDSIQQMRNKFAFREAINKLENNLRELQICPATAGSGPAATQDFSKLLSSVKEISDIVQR
UniProt P11802, sequence (whole entry, looked up): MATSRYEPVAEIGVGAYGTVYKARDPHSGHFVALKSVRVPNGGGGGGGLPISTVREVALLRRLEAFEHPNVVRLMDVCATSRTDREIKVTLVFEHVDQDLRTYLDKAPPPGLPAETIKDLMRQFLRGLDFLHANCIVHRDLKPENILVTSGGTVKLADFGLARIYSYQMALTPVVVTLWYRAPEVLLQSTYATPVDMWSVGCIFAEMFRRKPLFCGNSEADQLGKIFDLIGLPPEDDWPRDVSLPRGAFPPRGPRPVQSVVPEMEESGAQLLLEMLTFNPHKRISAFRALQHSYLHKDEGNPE
UniProt Q9H3Y6, sequence (whole entry, looked up): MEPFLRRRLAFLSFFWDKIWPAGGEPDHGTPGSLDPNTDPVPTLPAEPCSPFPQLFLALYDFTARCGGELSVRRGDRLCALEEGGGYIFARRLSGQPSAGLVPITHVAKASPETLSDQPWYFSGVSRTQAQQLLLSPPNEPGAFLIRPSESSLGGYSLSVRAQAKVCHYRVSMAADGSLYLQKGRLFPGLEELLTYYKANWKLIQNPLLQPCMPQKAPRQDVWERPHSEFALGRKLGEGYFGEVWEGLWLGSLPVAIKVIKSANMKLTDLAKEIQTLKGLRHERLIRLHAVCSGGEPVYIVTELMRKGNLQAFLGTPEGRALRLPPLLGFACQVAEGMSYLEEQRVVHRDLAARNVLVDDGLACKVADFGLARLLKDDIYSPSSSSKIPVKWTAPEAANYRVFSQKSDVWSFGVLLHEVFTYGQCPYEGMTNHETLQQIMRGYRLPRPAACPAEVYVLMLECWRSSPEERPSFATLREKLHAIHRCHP
UniProt Q12852, sequence (whole entry, looked up): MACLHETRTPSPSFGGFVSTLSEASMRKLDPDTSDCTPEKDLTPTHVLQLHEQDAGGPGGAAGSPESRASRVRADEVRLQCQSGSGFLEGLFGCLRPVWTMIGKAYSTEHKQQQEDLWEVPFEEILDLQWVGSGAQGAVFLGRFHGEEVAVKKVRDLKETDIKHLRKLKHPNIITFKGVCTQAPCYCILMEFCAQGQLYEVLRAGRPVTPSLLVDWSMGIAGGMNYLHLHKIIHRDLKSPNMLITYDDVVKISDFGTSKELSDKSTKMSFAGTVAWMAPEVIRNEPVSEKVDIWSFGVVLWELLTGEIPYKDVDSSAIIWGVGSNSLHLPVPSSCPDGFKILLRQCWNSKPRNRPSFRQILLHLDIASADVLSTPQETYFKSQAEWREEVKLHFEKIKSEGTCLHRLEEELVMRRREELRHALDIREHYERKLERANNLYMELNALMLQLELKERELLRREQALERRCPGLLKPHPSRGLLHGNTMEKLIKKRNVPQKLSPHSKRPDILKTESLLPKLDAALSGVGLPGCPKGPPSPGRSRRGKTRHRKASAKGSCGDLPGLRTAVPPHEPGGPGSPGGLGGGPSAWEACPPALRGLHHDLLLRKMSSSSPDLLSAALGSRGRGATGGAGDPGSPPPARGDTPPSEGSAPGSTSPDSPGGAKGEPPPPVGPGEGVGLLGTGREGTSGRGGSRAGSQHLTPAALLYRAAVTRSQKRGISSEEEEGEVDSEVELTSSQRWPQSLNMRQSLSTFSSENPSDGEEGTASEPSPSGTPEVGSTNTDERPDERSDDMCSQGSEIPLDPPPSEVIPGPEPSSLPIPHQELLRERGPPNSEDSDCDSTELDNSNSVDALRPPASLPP
UniProt Q00535, sequence (whole entry, looked up): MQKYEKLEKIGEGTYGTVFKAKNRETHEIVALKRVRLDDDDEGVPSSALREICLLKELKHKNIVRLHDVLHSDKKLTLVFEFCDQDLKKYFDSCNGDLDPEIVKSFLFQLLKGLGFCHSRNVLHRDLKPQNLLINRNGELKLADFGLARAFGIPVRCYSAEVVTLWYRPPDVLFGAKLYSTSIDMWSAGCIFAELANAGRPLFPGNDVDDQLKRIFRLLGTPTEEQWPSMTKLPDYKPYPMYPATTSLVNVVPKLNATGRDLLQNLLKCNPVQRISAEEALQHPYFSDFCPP
UniProt Q6PHR2, sequence (whole entry, looked up): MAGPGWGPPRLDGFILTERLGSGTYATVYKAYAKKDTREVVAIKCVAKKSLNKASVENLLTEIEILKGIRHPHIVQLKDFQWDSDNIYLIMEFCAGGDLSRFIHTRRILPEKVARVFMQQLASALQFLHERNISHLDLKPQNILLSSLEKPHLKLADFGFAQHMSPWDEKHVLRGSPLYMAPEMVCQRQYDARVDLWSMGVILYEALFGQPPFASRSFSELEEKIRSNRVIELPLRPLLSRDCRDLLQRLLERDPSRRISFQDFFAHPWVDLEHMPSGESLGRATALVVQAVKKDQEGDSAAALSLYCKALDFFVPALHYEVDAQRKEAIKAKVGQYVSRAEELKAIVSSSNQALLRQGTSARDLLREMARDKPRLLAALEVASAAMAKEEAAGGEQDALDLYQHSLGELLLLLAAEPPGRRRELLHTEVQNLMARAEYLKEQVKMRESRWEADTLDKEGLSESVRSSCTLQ
UniProt Q16816, sequence (whole entry, looked up): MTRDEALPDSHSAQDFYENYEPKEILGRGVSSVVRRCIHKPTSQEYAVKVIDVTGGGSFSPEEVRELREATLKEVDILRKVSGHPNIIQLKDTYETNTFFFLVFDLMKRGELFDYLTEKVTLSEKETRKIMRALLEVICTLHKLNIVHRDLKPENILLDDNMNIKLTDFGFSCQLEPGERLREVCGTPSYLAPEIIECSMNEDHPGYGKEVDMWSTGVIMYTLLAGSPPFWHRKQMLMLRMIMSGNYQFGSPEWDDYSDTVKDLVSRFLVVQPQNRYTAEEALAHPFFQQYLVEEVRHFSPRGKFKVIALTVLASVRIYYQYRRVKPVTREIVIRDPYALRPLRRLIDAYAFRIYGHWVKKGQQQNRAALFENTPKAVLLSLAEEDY

Block 1
Compound: N#CC(=C(N)Sc1ccc(N)cc1)c1ccccc1C(F)(F)F
Effect on: enzyme activity
Action: inhibitor
Tested at: 0.5 µM
Reference: control
Quantity: remaining activity
Ribosomal protein S6 kinase alpha-5 (RPS6KA5, Homo sapiens, UniProt O75582): 97.9%
Tyrosine-protein kinase ABL1 (ABL1, Homo sapiens, UniProt P00519): 106%
Ephrin type-B receptor 4 (EPHB4, Homo sapiens, UniProt P54760): 102%
Homeodomain-interacting protein kinase 4 (HIPK4, Homo sapiens, UniProt Q8NE63): 100%
Serine/threonine-protein kinase WNK3 (WNK3, Homo sapiens, UniProt Q9BYP7): 94.9%
Cyclin-dependent kinase 4, with cyclin D3 (CDK4, Homo sapiens, UniProt P11802): 108%
Testis-specific serine/threonine-protein kinase 2 (TSSK2, Homo sapiens, UniProt Q96PF2): 94.2%
Dual specificity tyrosine-phosphorylation-regulated kinase 3 (DYRK3, Homo sapiens, UniProt O43781): 105%
Ephrin type-A receptor 4 (EPHA4, Homo sapiens, UniProt P54764): 99.3%
Cyclin-dependent kinase 1, with cyclin B (CDK1, Homo sapiens, UniProt P06493): 105%
Homeodomain-interacting protein kinase 2 (HIPK2, Homo sapiens, UniProt Q9H2X6): 115%
Phosphorylase b kinase gamma catalytic chain, skeletal muscle/heart isoform (PHKG1, Homo sapiens, UniProt Q16816): 95.8%
Ribosomal protein S6 kinase alpha-6 (RPS6KA6, Homo sapiens, UniProt Q9UK32): 83.9%
Calcium/calmodulin-dependent protein kinase type II subunit beta (CAMK2B, Homo sapiens, UniProt Q13554): 93.5%
Serine/threonine-protein kinase 16 (STK16, Homo sapiens, UniProt O75716): 98.4%
cAMP-dependent protein kinase catalytic subunit gamma (PRKACG, Homo sapiens, UniProt P22612): 101%
Ephrin type-B receptor 1 (EPHB1, Homo sapiens, UniProt P54762): 98.8%
3-phosphoinositide-dependent protein kinase 1 (PDPK1, Homo sapiens, UniProt O15530): 103%
Mitogen-activated protein kinase kinase kinase kinase 4 (MAP4K4, Homo sapiens, UniProt O95819): 93.4%
Tyrosine-protein kinase Srms (SRMS, Homo sapiens, UniProt Q9H3Y6): 105%
MAP kinase-activated protein kinase 3 (MAPKAPK3, Homo sapiens, UniProt Q16644): 102%
Tyrosine-protein kinase Blk (BLK, Homo sapiens, UniProt P51451): 111%
Serine/threonine-protein kinase 17A (STK17A, Homo sapiens, UniProt Q9UEE5): 82.6%
Cyclin-dependent kinase 6, with cyclin D3 (CDK6, Homo sapiens, UniProt Q00534): 103%
Tyrosine-protein kinase receptor UFO (AXL, Homo sapiens, UniProt P30530): 119%

Block 2
Method: linear regression of PRP log k'
Quantity: logD (1,9-decadiene/water)
COCC(=O)OCCCCCC(=O)N[C@H](C(=O)N1C[C@H](O)C[C@H]1C(=O)NCc1ccc(-c2scnc2C)cc1)C(C)(C)C: -2.51
Cc1ncsc1-c1ccc(CNC(=O)[C@@H]2C[C@@H](O)CN2C(=O)[C@@H](NC(=O)CCCCCNC(=O)CC23C[C@H]4C[C@@H](C2)C[C@@H](C3)C4)C(C)(C)C)cc1: -0.666
CCCC(=O)NCCCCCC(=O)N[C@H](C(=O)N1C[C@H](O)C[C@H]1C(=O)NCc1ccc(-c2scnc2C)cc1)C(C)(C)C: -2.95
CCOC(=O)[C@@H]1CSCC(=O)N[C@@H](CC(C)C)C(=O)N(C)[C@@H](C)C(=O)N[C@@H](CC(C)C)C(=O)N2CCC[C@@H]2C(=O)N(CC)CC(=O)N[C@@H](CC2CCCCC2)C(=O)N(C)[C@@H](C)C(=O)N[C@@H](CC(C)C)C(=O)N1C: 3.86
CCCN1CC(=O)N[C@@H](CC2CCCCC2)C(=O)N(C)[C@@H](C)C(=O)N[C@@H](CC(C)C)C(=O)N(C)[C@H](C(=O)OCC)CSCC(=O)N[C@@H](CC(C)C)C(=O)N(C)[C@@H](C)C(=O)N[C@@H](CC(C)C)C(=O)N2CCC[C@@H]2C1=O: 4.5
CCCC(=O)OCCCCCC(=O)N[C@H](C(=O)N1C[C@H](O)C[C@H]1C(=O)NCc1ccc(-c2scnc2C)cc1)C(C)(C)C: -1.43

Block 3
SMILES: COc1ccc2[nH]c3c4[nH]c5ccc(OC)cc5c4c4c(c3c2c1)C(=O)NC4=O
Effect on: binding
Tested at: 1 µM
Quantity: remaining binding
Mitogen-activated protein kinase 6 (MAPK6, Homo sapiens, UniProt Q16659): 84%
Myosin light chain kinase 2, skeletal/cardiac muscle (MYLK2, Homo sapiens, UniProt Q9H1R3); competition with immobilised ligand: 82%
Phosphatidylinositol 4,5-bisphosphate 3-kinase catalytic subunit alpha isoform (PIK3CA, Homo sapiens, UniProt P42336, H1047L): 74%
cAMP-dependent protein kinase catalytic subunit beta (PRKACB, Homo sapiens, UniProt P22694); competition with immobilised ligand: 89%
Epidermal growth factor receptor (EGFR, Homo sapiens, UniProt P00533, L858R/T790M): 35%
Mitogen-activated protein kinase kinase kinase 12 (MAP3K12, Homo sapiens, UniProt Q12852): 77%

Block 4
SMILES: Cc1c[nH]c2nccc(Oc3c(F)cc(Nc4cc(Cl)nc(N)n4)cc3F)c12
Effect on: cell-free assay
Method: competition with immobilised ligand
Tested at: 0.1 µM
Quantity: remaining binding
Ankyrin repeat and protein kinase domain-containing protein 1 (ANKK1, Homo sapiens, UniProt Q8NFD2): 85%
Tyrosine-protein kinase FRK (FRK, Homo sapiens, UniProt P42685): 100%
Testis-specific serine/threonine-protein kinase 1 (TSSK1B, Homo sapiens, UniProt Q9BXA7): 95%
Phosphatidylinositol 4,5-bisphosphate 3-kinase catalytic subunit alpha isoform (PIK3CA, Homo sapiens, UniProt P42336, E545K): 82%
Dual specificity protein kinase CLK4 (CLK4, Homo sapiens, UniProt Q9HAZ1): 86%
Phosphatidylinositol 5-phosphate 4-kinase type-2 beta (PIP4K2B, Homo sapiens, UniProt P78356): 90%
Microtubule-associated serine/threonine-protein kinase 1 (MAST1, Homo sapiens, UniProt Q9Y2H9): 100%
Phosphatidylinositol 4,5-bisphosphate 3-kinase catalytic subunit alpha isoform (PIK3CA, Homo sapiens, UniProt P42336): 83%
Myotonin-protein kinase (DMPK, Homo sapiens, UniProt Q09013): 56%
Cyclin-dependent kinase 5 (CDK5, Homo sapiens, UniProt Q00535): 94%
Hormonally up-regulated neu tumor-associated kinase (HUNK, Homo sapiens, UniProt P57058): 100%
Ephrin type-A receptor 6 (EPHA6, Homo sapiens, UniProt Q9UF33): 100%
Cyclin-dependent kinase 4, with cyclin D3 (CDK4, Homo sapiens, UniProt P11802): 100%
Tyrosine-protein kinase Srms (SRMS, Homo sapiens, UniProt Q9H3Y6): 100%
Tyrosine-protein kinase ABL1, non-phosphorylated (ABL1, Homo sapiens, UniProt P00519): 89%
Cyclin-dependent kinase 7 (CDK7, Homo sapiens, UniProt P50613): 91%
Tyrosine-protein kinase ABL1, non-phosphorylated (ABL1, Homo sapiens, UniProt P00519, F317L): 84%
Hepatocyte growth factor receptor (MET, Homo sapiens, UniProt P08581, Y1235D): 88%
Casein kinase II subunit alpha (CSNK2A1, Homo sapiens, UniProt P68400): 100%
Casein kinase I isoform gamma-1 (CSNK1G1, Homo sapiens, UniProt Q9HCP0): 100%
Serine/threonine-protein kinase ULK3 (ULK3, Homo sapiens, UniProt Q6PHR2): 88%
Mitogen-activated protein kinase kinase kinase 12 (MAP3K12, Homo sapiens, UniProt Q12852): 98%
Serine/threonine-protein kinase MAK (MAK, Homo sapiens, UniProt P20794): 84%
Cyclin-dependent kinase 3 (CDK3, Homo sapiens, UniProt Q00526): 97%
Tyrosine-protein kinase JAK3, JH1 (JAK3, Homo sapiens, UniProt P52333): 92%
